# Assay results pooled from the literature.
# Each line is one published result; not all experiments were run side by side.
Compound,test system,setting,AUC(0-last)
OCc1ncc2n1-c1ccc(Cl)cc1C(c1ccccc1F)=NC2,"healthy human volunteers, plasma","5 mg, day 11, fed, together with: once daily, momelotinib 200 mg, days 4 to 11",22.4 ng·h/mL
OCc1ncc2n1-c1ccc(Cl)cc1C(c1ccccc1F)=NC2,"human, plasma","oral, 2 mg midazolam, day 1, midazolam alone, geometric mean",6.21 ng·h/mL
OCc1ncc2n1-c1ccc(Cl)cc1C(c1ccccc1F)=NC2,"humans, plasma","3 mg of midazolam, midazolam alone",14.1 ng·h/mL
CCC(CC)COC(=O)[C@H](C)N[P@](=O)(OC[C@H]1O[C@@](C#N)(c2ccc3c(N)ncnn23)[C@H](O)[C@@H]1O)Oc1ccccc1,"human, plasma","intravenous, 100 mg single dose",1280 ng·h/mL
CC(C)c1nc(N(C)S(C)(=O)=O)nc(-c2ccc(F)cc2)c1/C=C/[C@@H](O)C[C@@H](O)CC(=O)O,"healthy human subjects, plasma","oral, 20 mg, day 1, alone, geometric mean",45.6 ng·h/mL
OCc1ncc2n1-c1ccc(Cl)cc1C(c1ccccc1F)=NC2,human,"dose not given, together with: risdiplam",9.43 ng·h/mL
Cc1ncc2n1-c1ccc(Cl)cc1C(c1ccccc1F)=NC2,"human, plasma","oral, 2 mg, day 1",21.5 ng·h/mL
CC(C)[C@H](N)C(=O)NCCCS(=O)(=O)O,human,"oral, 265 mg twice daily, week 65, effect of covariates on exposure",no effect
O[C@H]1CCCN[C@@H]1CCCn1cnc2c(Cl)c(Cl)ccc21,"healthy humans, plasma","oral, 150 mg single dose",876 ng·h/mL

# Excerpt of the above:
Compound,test system,setting,AUC(0-last)
CCC(CC)COC(=O)[C@H](C)N[P@](=O)(OC[C@H]1O[C@@](C#N)(c2ccc3c(N)ncnn23)[C@H](O)[C@@H]1O)Oc1ccccc1,"human, plasma","intravenous, 100 mg single dose",1280 ng·h/mL
